Assay results pooled from the literature.
Parts stem from different laboratories: compare values within a part only. Substitutions count along the parent as printed.

Series 1 — technique: RNA Bind-n-Seq; molecule type: RNA; sample: in vitro; concentration: 365 nM; baseline: no-protein control; direction: higher = stronger binding
Target: RNA binding protein fox-1 homolog 2, RRM domain, GST-SBP tag (RBFOX2, Homo sapiens, UniProt O43251-10, residues 100-194)
Setting: natural RNA segment, single round, ends assumed
Target sequence (chain): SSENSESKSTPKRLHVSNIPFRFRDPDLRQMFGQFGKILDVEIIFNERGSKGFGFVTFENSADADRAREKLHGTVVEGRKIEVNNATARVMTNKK
Oligonucleotide	RBNS enrichment (R)
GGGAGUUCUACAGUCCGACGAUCAACCCAGUCAUCCCACUAUGAAUCUGGCAUCUUCUUAUGCUUCUAGUGUUUUGGCCAUACAUCAACCAAGGGGUUUAAUUUAUCCAAUGCUUGACGACAUGUUCAGGAGGUGGAAUUCUCGGGUGCCAA	0.281
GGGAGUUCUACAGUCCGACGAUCUUACACAGAAAACCUUUGUUAAGGACUUGUGUAGAUCUGAUAAUUGGCAAAUUUUUAUUUUAAAAGUAUUCUUACAGAAGAGUUCCAUUUAAGAAUGUUCACUUAUAGGAUGGAAUUCUCGGGUGCCAA	0.805
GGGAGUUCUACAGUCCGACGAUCUUGGAAAGAAAGAUGAAAACGUAGAAUGUAGUGCUAAGAACGUUUCCCGUUCUCUCAUGCCUUCGCCCUCCGCCCUCCGAGAUCCCUGAAGGAGGAAAGAGAUAAAGGUUUGGAAUUCUCGGGUGCCAA	0.413
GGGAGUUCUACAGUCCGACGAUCCCCCUCCUCCUAAAGUCAAGGUGGGGUGGACAAUGACUUCCACAUCCCUCAGGGCAUAGAGUCCUUGCCACCACCUGUCCCCAGAUGCCAGUGUGUGGCACCCCUCCCCCUGGAAUUCUCGGGUGCCAA	0.306
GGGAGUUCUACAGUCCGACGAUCAAAGAUGUGAUUUAGUUCCUAGCCCAUCAGGCAGCUCACAGCCACAUGACUAUAACUCUAGACCCAGAGAAUCUGAUGUUCUUCUCCUCUGAGGGCAUCUGAAUGCAUAUUGGAAUUCUCGGGUGCCAA	0.977
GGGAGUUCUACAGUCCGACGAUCUUGCCCUCCAAGUUCUCUCUCUCAUACACACACACACCCUUGCUCCAGAAUCACCAGACACCUCCAUGGCUCCAGCUAUGGGAACAGCUGCAUUGGGGCUGCCUUUCUGUUGGAAUUCUCGGGUGCCAA	0.727
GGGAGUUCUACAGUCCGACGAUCUUGUCAUUGUUACAUUCCAGUGUUUCUGCCUCUUGGCAUGCUUAAAGCACGGCUUACUUCAUCUGCUCCUUACACACUAAAAUGCUCUUAGUGUGCUCAACUACAGAGAUUGGAAUUCUCGGGUGCCAA	0.67
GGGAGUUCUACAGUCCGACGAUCGUAGACAGUGUUCAUUUGAUUUUCUACAGAAAUAAUAUAAAUUAUUCUUUAGGUUUAAAAAAGAGCACUCAUAAUGCAAUAUGUGAAUAAUCAGUGAGGUUGAUUUUUCUUGGAAUUCUCGGGUGCCAA	1.03
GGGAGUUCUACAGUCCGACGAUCCAGGUUACUUCUCUCCGCAGGGGCUGAAGACAGAUGUGUCAGCCCAUGGGAACCAGCCUGGGCCCUAGUGGAGGGUCCUGGUAGCUGCAGACCAGAGCCUCACACCUCUGUGGAAUUCUCGGGUGCCAA	0.453
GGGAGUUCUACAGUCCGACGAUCUGGCAAGGUGUAGGAGGGACCUUGAACCUGGCUGGCCAGGGCAGCAGCAGGAGUAGGUAGAGCUGUUGUUCCUUCUGGGCUGUCUCCAUCCAUCUAUACCCCUUUCAUGCUGGAAUUCUCGGGUGCCAA	0.659
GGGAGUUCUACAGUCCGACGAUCCACUCUCUCCACCUUUAUUUGCUUCUGAGUUCUUGUUUUUGAGCAAUAAACAGAAAGUCACCACUUGUAACUGAGCUGGUGAGUCUGGAAAAAUGGGUCUCAAAGUGUUGUGGAAUUCUCGGGUGCCAA	0.35
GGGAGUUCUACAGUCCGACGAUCGGUUGAUCCCUCACUUGACUGAUACUUGCAUUCAAGAGAAUCUAGAUUGUGUUGGGGGAGGGACUGACUGUACUCAUGGCUAACUUAAAGUAUUAAAAUAAGGCUGUCCCUGGAAUUCUCGGGUGCCAA	0.37

Series 2 — technique: DHFR PCA, dose-response; sample: yeast; setting: Hill fit, mean, not affinity; together with: (+)-ABA, dose series; direction: lower = more sensitive
Target: ABI1, truncated, D143A, DHFR fusion (Arabidopsis thaliana, UniProt P49597)
Parent: PYL1, truncated, DHFR fusion (Arabidopsis thaliana, UniProt Q8VZS8); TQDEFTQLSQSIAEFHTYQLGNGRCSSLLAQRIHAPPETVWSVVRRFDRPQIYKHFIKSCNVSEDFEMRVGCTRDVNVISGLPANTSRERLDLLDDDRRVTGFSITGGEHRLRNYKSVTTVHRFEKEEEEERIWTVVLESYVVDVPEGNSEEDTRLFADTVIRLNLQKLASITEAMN
Change	ABA EC50 [µM]
V100K	278
V118Y	192
V142H	16
I162T	359
D75H	1.36
T173I	7.52
H55F	1.55
N114G	4.02
T173W	67.5
V70R	19.5

Series 3 — technique: RNA Bind-n-Seq; molecule type: RNA; sample: in vitro; concentration: 100 nM; baseline: input RNA pool; direction: higher = stronger binding
Target: RING finger protein unkempt homolog, zinc fingers 1-6, SBP tag (UNK, Homo sapiens, UniProt Q9C0B0, residues 30-357)
Sequence of UniProt Q9C0B0 (30-357, looked up): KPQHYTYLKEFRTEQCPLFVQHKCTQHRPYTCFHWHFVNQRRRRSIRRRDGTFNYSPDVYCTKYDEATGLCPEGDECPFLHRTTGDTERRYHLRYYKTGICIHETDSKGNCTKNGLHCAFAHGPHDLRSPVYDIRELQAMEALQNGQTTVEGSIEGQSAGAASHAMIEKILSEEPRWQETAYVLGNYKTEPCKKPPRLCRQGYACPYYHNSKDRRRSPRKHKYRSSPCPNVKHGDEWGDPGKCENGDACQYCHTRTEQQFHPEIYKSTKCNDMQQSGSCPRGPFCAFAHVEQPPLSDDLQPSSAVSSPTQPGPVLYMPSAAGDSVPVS
Setting: RNA with constant flanks, vertebrate orthologous sites, ends assumed
Oligonucleotide	bound/input enrichment [ratio]
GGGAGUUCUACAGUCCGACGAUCCUGGUCUUCCACUUAGGCUCAGCCUCAGAUCUAUAAGAUUUAUGACAAAUGUAUUCUGUCUCAUUAAGUUGAGUUUAUUAUUUUUUUAAUAAGCCUGUAAAUAAAGAUGGCAUCUUCUACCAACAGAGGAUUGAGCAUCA	0.515
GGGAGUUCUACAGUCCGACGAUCCCGCCAAUUCCCUCAUUGGUCGGGCUGCGCACAUCGCUGUUCUUGAUUCAGAGAUCUUCCUGGAGAAGUUCUUCCUCGUUGCGGGUCUCAAGUUCUUUCAGUAGAAAUGUAUUGGAAUCACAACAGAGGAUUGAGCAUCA	0.261
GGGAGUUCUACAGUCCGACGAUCCAGUAGAAUUACACUAAUGCUGAAGUUAAAAGGAUAUCCAAGGUGAUGAUAAAGUGUGUGUUGGUAGUUACUAAAAGAACCUUAGCUGUUAUUGCCUUGUAUUUCUAUCCCUUGUUUCAGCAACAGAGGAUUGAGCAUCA	0.393
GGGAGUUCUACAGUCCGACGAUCUCUGCGUAGCAAUUAGAGUGGGUUCUCCCACUCGUCCUGUCACAAGGAAGAAAGCUCAAAUAGGUUCUUUACACAUCUGAUUAUGCUGUUCUGUUUCUCUUUUCUAUUUUUACAUAUACACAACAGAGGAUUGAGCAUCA	1.42
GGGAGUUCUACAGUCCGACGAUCCCCGCUGCUCCUGGGUGCGUGACUGAGGGUGAAGCAUCCACCAGCGCUGCAAGGGGUCCAUAGUAUUUUUUUGCUGCCUCAGUCCCCAGAGCCUUCAAGCAGAAGUGGCAGUAGAUUGUUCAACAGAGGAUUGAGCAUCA	1.17
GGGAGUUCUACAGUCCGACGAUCAUUAUUCAUUUGGCUGAAAUUAUUUAGAUAAGAAAUUACUAGUUUUCUUUCAAACAGCAUAUCCUAUUUUUCAUCUACUUUGCAAAUACAAGUUUUCUGUGAUUUCUUAACAUGCCAAAACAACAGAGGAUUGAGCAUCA	0.574
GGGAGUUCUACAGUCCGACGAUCAAAUAUAUUUUAUGCCAUGGACUCCAUACCGUACGGAUACAUUAAUAGAGUAUGCUUCUUUACAAGAUUUUCAAAAUGGCAGACAGACUACAACAUAUAAACUUCCCAAUCGAGUGGAUGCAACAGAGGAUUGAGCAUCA	1.01
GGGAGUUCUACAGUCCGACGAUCAGUAGUUUUAAGCUUGUUUGCACAGUUCUUUUUUUCCAUUGGAAAUGGAAUUCAUUGCCUUAGGUCUUUUAAAAUAGUGUAUUAUUAUCGUUGGGGCUGGCUCUAUGCUUGAAAACCAGUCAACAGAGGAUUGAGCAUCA	2.95
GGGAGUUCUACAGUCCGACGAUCAUAGCAGCAGCACAGGCUGUUUGAGCUUUGGGAAAAUGAGCUUUGCUUUUUAUAUUUAAAUAGGAUACUUUUAUAUGAUGGGUGCUUUGAGUGUGAAUGCAGCAGGCUCUCAUUUCAGAGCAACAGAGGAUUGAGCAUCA	1.23

Series 4 — target: CCNB2, cyclin fold, Cln2 fusion (human); technique: yeast growth competition, sequencing; sample: yeast; setting: weak parent motif; baseline: not given; direction: higher = stronger binding
Parent: WEE1 docking peptide (human); HKTFRKLRLFDTP; partner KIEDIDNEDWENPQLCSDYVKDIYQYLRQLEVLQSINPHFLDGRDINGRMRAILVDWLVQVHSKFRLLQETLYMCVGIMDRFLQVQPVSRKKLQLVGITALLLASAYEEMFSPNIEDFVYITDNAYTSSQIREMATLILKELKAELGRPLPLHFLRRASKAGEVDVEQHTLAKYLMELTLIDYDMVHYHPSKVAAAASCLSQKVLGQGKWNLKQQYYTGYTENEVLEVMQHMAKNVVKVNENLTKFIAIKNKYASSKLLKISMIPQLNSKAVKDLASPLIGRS
Change	normalised enrichment score
F4C	0.433
H1D	0.749
F10T	0.52
L9T	0.447
F10H	0.484
D11N	-0.14
F4K	0.582
T12L	0.427
D11A	0.273
H1Y	0.352
P13F	0.633
R8Y	0.704
D11V	0.417
L9F	0.634
R5S	0.211
L7V	0.144
K2E	0.304
P13I	0.285

Series 5 — technique: protein binding microarray; molecule type: double-stranded DNA, one strand shown; sample: in vitro; concentration: not given; baseline: not given; direction: higher = stronger binding
Target: Histone acetyltransferase KAT6A, both winged helices, GST fusion (KAT6A, Homo sapiens, UniProt Q92794, residues 1-181)
Setting: 8-mer, flanks averaged, mean of 2 arrays, mostly near background
Construct (chain): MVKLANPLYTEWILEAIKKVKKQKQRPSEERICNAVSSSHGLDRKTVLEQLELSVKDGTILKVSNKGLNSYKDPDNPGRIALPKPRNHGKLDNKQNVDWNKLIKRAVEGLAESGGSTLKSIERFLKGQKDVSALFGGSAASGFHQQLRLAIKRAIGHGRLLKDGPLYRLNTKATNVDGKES
Oligonucleotide	E-score
GCCAAGGC	-0.107
CGTGTGCC	0.101
ACTGTATC	-0.0518
CCAGCGCG	0.292
GACCTGGA	-0.155
CAGTAGGC	-0.19
CTCCAAAA	-0.186
AGCCATCC	-0.0982
ACCATACT	-0.216
CAGCCCGA	-0.0111
AGTTCCGC	0.237
CTAAATCC	-0.0293
ATTGACGC	0.101
CAGGGTCG	-0.0144
AGACGTGG	0.00387
CCATATAG	-0.0488
ATCGCAGG	-0.125
CACTACCC	-0.104
ACACCTCT	-0.0578
ACATGTCG	0.0282
CTAAAATA	-0.118
GACATCTA	-0.00261
CATCACCC	0.0689
GAGCGCTA	0.251
ATTTCGTG	-0.116

Series 6 — technique: universal PBM; molecule type: double-stranded DNA, one strand shown; sample: in vitro; concentration: not given; direction: higher = stronger binding
Target: Sal-like protein 4, full length isoform B (SALL4, Homo sapiens, UniProt Q9UJQ4-2, residues 1-616)
Setting: 8-mer, flanks averaged, mean of replicates
Oligonucleotide	E-score
ACAAAGAT	0.252
CACGGCAA	-0.0162
ACGCCTGC	-0.335
AAAGGGAA	0.0876
ACATGGGA	-0.0686
TATCGATA	0.088
GAAACGAA	0.0777
GATACGCC	-0.146
CTCCCATA	0.0785
CTAAGCGC	-0.189
TACAGTCA	0.193
CTAGCAAG	-0.218
AACAAAGC	0.194
AGACTTAT	0.215
CCTCAACG	-0.137
CAACCGGC	-0.265
GACTAGCA	-0.13
ATCAGACC	0.0124
ATGACAAG	0.0646
ATCGCTGG	-0.157
GGTCGGAC	-0.332
AGGGGTGC	-0.362
AGCTAGGC	-0.214
GTTGAGTA	0.179
CCAAGGGG	-0.173
